# Experimental data pooled from the literature.
# Parts stem from different laboratories: compare values within a part only. Changes are numbered by the printed parent chain.

# Series 1
# Target: vanadate, free oxyanion
# Method: microfluidic competitive inhibition
# Medium: in vitro, cell-free expressed
# Tested at: not given
# Setting: derived from inhibition constants, unchanged parent 676 nM
# Reading: lower = stronger binding
# Starting sequence: PafA, mature enzyme, eGFP fusion (Elizabethkingia meningoseptica, UniProt Q9KJX5); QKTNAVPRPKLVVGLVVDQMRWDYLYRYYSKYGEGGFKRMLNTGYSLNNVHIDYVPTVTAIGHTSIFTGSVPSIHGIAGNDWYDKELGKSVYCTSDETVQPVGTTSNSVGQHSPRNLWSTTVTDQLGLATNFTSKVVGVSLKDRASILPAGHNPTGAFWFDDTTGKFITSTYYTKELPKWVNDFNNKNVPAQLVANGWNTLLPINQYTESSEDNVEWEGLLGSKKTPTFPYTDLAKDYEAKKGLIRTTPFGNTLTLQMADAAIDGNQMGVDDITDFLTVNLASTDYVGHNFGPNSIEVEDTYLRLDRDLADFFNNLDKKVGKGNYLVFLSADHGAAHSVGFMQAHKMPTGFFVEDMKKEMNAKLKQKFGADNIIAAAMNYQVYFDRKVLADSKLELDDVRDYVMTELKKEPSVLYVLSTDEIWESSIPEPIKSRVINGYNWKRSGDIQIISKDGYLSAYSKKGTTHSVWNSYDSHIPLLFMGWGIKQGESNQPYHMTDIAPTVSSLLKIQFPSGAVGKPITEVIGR
Variant,oxyanion analog dissociation constant
S426V,554 nM
V136G,448 nM
K452G,674 nM
N266V,640 nM
I263V,576 nM
T169G,723 nM
V16A,504 nM
S418G,728 nM
T349G,656 nM
T120G,546 nM
Y92V,2.63 µM
N294G,854 nM
N4V,667 nM
H63V,3.96 µM
T248V,1.03 µM
V99A,694 nM

# Series 2
# Target: ABI1, truncated, D143A, DHFR fusion (Arabidopsis thaliana, UniProt P49597)
# Method: DHFR PCA, dose-response
# Medium: yeast
# Setting: Hill fit, not affinity, not high confidence
# Together with: (+)-ABA, dose series
# Reading: lower = more sensitive
# Starting sequence: PYL1, truncated, DHFR fusion (Arabidopsis thaliana, UniProt Q8VZS8); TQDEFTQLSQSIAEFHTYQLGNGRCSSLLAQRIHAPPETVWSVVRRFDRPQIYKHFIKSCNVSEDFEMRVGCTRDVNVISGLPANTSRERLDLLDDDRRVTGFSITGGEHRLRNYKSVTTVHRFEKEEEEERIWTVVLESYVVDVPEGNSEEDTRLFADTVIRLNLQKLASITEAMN
Variant,ABA EC50 [µM]
F47H,5.96
N165M,0.405
H110S,273
K54G,0.203
A84R,0.0159
L112A,799
E89T,292
V44F,756

# Series 3
# Target: CCND3, cyclin fold, Cln2 fusion (human)
# Method: yeast growth competition, sequencing
# Medium: yeast
# Setting: weak parent motif
# Relative to: not given
# Reading: higher = stronger binding
# Starting sequence: viral docking peptide; KGVKRKLFAEDSS; partner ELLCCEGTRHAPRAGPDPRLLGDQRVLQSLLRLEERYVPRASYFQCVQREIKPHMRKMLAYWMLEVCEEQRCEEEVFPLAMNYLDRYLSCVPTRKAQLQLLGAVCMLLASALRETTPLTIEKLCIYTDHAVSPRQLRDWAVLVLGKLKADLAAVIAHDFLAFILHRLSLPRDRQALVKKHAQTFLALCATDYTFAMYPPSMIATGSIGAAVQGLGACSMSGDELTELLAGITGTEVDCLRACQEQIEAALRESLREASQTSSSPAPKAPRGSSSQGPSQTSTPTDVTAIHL
Variant,normalised enrichment score
L7S,0.368
V3F,0.396
K6D,-0.526
F8W,0.0831
R5F,0.135
L7K,0.299
K4F,-0.0301
D11E,-0.0617
S12E,-0.304
S12I,0.163
E10Q,0.0733
L7C,0.188
G2P,0.164
A9L,0.0604
D11M,-0.148
L7A,0.195
L7P,-0.0582
E10G,-0.0635

# Further values, each from its own experiment
Molecule,target,test,system,conditions,scale,quantity,value
"PhoQ, residues 284 288 289 292 302 303 SLANKL","PhoP, residues 12 14 15 18 19 AQALL (Escherichia coli, UniProt P23836)","Sort-seq, refers to: YFP reporter",E. coli,"PhoQ-PhoP variant library, together with: 10 µM Mg2+","relative to: high Mg2+ state, higher = stronger signaling",fold induction,10.4

# A few entries again (series 3):
Variant,normalised enrichment score
K4F,-0.0301
L7C,0.188
L7P,-0.0582
G2P,0.164
S12I,0.163
